Measurements gathered from unrelated publications.
Protocols differ between the studies behind these lines. Several values in a cell are separate wells, animals, samples, runs or records. ± marks the error that the study gave.

Compound = Cc1cc(C)nc(NC(=S)N2CCN(c3ccc(C(F)(F)F)cn3)CC2)c1; cell line = MDA-MB-468; test = isotope labelling; conditions = concentration not given, 4 h, with: U-13C-serine; quantity = M+2 glycine pool; value = decreased
Compound = COc1ccc(CC[C@H]2OC(=O)[C@@H]3CCCCN3C(=O)C(=O)C(C)(C)COC(=O)/C=C/CCN(C)C(=O)[C@H](CC(C)C)N(C)C(=O)[C@@H]3CCCN3C(=O)[C@H](Cc3ccccc3)N(C)C(=O)[C@H](c3ccccc3)NC(=O)CCC(=O)Nc3cccc2c3)cc1OC; cell line = Jurkat T cells, wild type; test = [3H]-thymidine incorporation, inhibitor; conditions = 3 h; quantity = EC50; value = 48.5 nM
Compound = c1ccc2c(Cc3[nH]c4ccccc4c3Cc3c[nH]c4ccccc34)c[nH]c2c1; cell line = human monocytes; conditions = 5 µM; how to read = reference: DMSO; quantity = IL-1β induction; value = increased
Compound = COC(=O)c1cc(NC2=NC(=O)C(=Cc3ccc(C)cc3)S2)ccc1OC(C)=O; cell line = MCF7; test = GC-MS, item: L-5-Oxoproline; conditions = 1 µM; how to read = reference: DMSO; quantity = metabolite level; value = 0.36 fold change
Compound = CC(C)c1ccc(N(C)c2ccc3c(c2)OCC[C@H]3CNc2cnccc2C(=O)O)cc1; cell line = SK-LU-1; test = cell viability, CellTiter-Glo; conditions = 7 days; quantity = IC50; value = 40 nM
Compound = CCOc1cncc(-c2ccc(NC(=O)C3(c4ccnc(NS(=O)(=O)C5CC5)n4)CCOCC3)nc2)n1; cell line = U-266; test = cell growth or viability, ATP luminescence; conditions = 72 h; quantity = IC50; value = 3020 nM
Compound = Cn1ncc2cc(-c3cncc(Cl)c3N3CCC4(CCNC4=O)CC3)ccc21; cell line = LS174T; test = gene expression, microarray, item: JAK3 mRNA; conditions = concentration not given, 24 h; how to read = reference: untreated cells; quantity = log2 fold change; value = 3.01
Compound = O=C(O)C1OC(Oc2ccc3c(=O)cc(-c4ccccc4)oc3c2)C(O)C(O)C1O (stereo not drawn); cell line = MDCKII-UGT1A1/MRP2 cells; test = glucuronide efflux, substrate; quantity = Jmax; value = 16.5 ± 0.98 pmol/mg/min
Compound = CNS(=O)(=O)Nc1nccc(Cc2c(C)c3ccc(Oc4ncccc4F)cc3oc2=O)c1F; cell line = BFTC-905; test = cell viability; conditions = 7 days; quantity = IC50; value = 15.1 nM
Compound = COC1=C2CC(C)CC(OC)C(O)C(C)C=C(C)C(OC(N)=O)C(OC)C=CC=C(C)C(=O)NC(=CC1=O)C2=O (stereo not drawn); cell line = Rh30; test = ChIP-seq, item: H3K36me3 peak; conditions = concentration not given, PGAM5 intron chr12:133271200-133281799; how to read = reference: untreated control; quantity = log fold change; value = -0.505
Compound = Cc1ncsc1-c1ccc(C(C)NC(=O)C2CC(O)CN2C(=O)C(NC(=O)CCCCCCCCCCN2CCCC(Nc3ncc(Cl)c(Nc4ccccc4S(=O)(=O)C(C)C)n3)C2)C(C)(C)C)cc1 (stereo not drawn); cell line = 22Rv1; test = RNA-seq, item: TMEM125 mRNA; conditions = concentration not given; how to read = reference: DMSO; quantity = log2 fold change; value = -1.04
Compound = CCN(CC)CC(=O)Nc1cccc(-n2cc(-c3ccc4ccc(-c5cn(-c6cccc(NC(=O)CN(CC)CC)c6)nn5)cc4c3)nn2)c1; cell line = RCC4; test = PCR angiogenesis array, item: TNF; conditions = 5 x IC50, 2 h, normoxia; how to read = reference: untreated; quantity = fold regulation; value = 1.16 fold
Compound = CCn1ccc(C2CCCN2S(=O)(=O)c2cc(C)c(C)cc2C)n1 (stereo not drawn); cell line = human monocytes; test = phagocytosis of anti-D opsonised RBCs, monocyte monolayer; conditions = concentration not given; quantity = inhibition of phagocytosis; value = inactive
Compound = C/C1=C\CC/C(C)=C/CC(C)(C)/C=C/C1; cell line = mouse DRG neurons; test = inhibitor, whole-cell patch clamp; conditions = 100 µM, 5 min, at -10 mV, cultured 0.08333 h; quantity = remaining sodium current; value = 90 ± 5%
Compound = CN(C)CCN1CCN(c2ccc3nc(-c4ccc5nc(-c6ccc(C(F)(F)F)cc6)[nH]c5c4)[nH]c3c2)CC1; cell line = Malme-3M; test = SRB; conditions = 10 µM, 48 h; quantity = growth percent; value = -4.2%
Compound = CCN(C(=O)c1cc(F)ccc1Oc1nncnc1N1CCC2(C1)CN([C@H](CCCN(C)CCOC)C(C)C)C2)C(C)C; cell line = UMUC3; test = cell growth or viability; conditions = 72 h; quantity = GI50; value = > 10000 nM
Compound = CCCC[C@H]1C(=O)N(C)[C@@H](CCCC)C(=O)N[C@@H](CCCCNC(=S)Nc2ccc(CN3CCN(CC(=O)O)CCN(CC(=O)O)CC3)cc2)C(=O)N[C@H](C(=O)NCC(N)=O)CSCC(=O)N[C@@H](Cc2ccc(O)cc2)C(=O)N(C)[C@@H](C)C(=O)N[C@@H](CC(N)=O)C(=O)N2CCC[C@H]2C(=O)N[C@@H](Cc2c[nH]cn2)C(=O)N[C@@H](CCC(=O)O)C(=O)N2C[C@H](O)C[C@H]2C(=O)N[C@@H](Cc2c[nH]c3ccccc23)C(=O)N[C@@H](CO)C(=O)N[C@@H](Cc2cn(CC(=O)O)c3ccccc23)C(=O)N1C [fluorine-18 labelled]; cell line = H226; test = binding; conditions = concentration not given, 30 min, 4 °C; how to read = reference: added activity; quantity = cell-bound activity; value = 0.96 ± 0.05%
Compound = CN1CCCNC(=O)c2cccc(c2)C(=O)NCCCN(C)CCCNc2cccc3c2C(=O)c2cccc(c2C3=O)NCCC1; cell line = SAS; test = RNA-Seq, item: RBMS1 mRNA; conditions = 1 µM, 6 h; how to read = reference: untreated cells; quantity = log2 fold change; value = -0.767
Compound = COc1cc(/C=C/C(=O)/C=C(O)/C=C/c2ccc(OCC(=O)N3CCOCCOCCOCCOCC3)c(OC)c2)ccc1OCC(=O)N1CCOCCOCCOCCOCC1; cell line = SK-LU-1; test = cell growth or viability, SRB; conditions = 25 µM; quantity = inhibition; value = 100%
Compound = C1=[N+]2CCCC[N+]3=Cc4ccc5[n]4[Au-]23[n]2c1ccc2-c1nc2ccccc2nc1-5.F[P-](F)(F)(F)(F)F; cell line = LOX IMVI; test = NCI60 five-dose screen; quantity = TGI; value = 4 -log M
Compound = CC(=O)NCCCN(C)CCCNc1cccc2c1C(=O)c1cccc(NCCCN(C)CCCNC(C)=O)c1C2=O; cell line = SAS; test = RNA-Seq, item: ATP5MC2 mRNA; conditions = 1 µM, 24 h; how to read = reference: untreated cells; quantity = log2 fold change; value = -0.426
Compound = CNC(=O)CCN(Cc1ccc(C(F)F)cc1)C(=O)c1cc2c(OC)ccc(-c3ccc(=O)n(C)c3)c2s1; cell line = murine AML cells; test = BRD4 chromatin occupancy, ChIP-seq, item: Irf2bp2 locus; conditions = concentration not given; how to read = reference: DMSO; quantity = log2 fold change; value = -2.78
Compound = CCCc1cc(=O)nc(SCC(=O)N(C)c2ccccc2)[nH]1; cell line = cells, COS-1, expressing proMMP-9; test = cell migration, 2D collagen dot migration; conditions = 50 µM, 18 h; quantity = inhibition; value = 2 ± 6%
Compound = Cc1cc(Cl)cc(-c2ccnc3cc(CN4C(=O)C5C(C4=O)C5(C)C)sc23)c1C[C@@H]1CNCCO1 (stereo partly drawn); cell line = CHP-212 resistant; test = annexin V/PI flow cytometry; conditions = 0.3 µM, 48 h; quantity = apoptotic cells; value = 11.1%
Compound = COc1cccc(OC)c1-c1cc(C(=O)NC2(C(=O)O)C3CC4CC(C3)CC2C4)nn1-c1ccc(C(=O)NCCNC(=O)[C@H](CCCCNC(=O)[C@H](CC(C)C)NC(=O)C2OC2C(=O)O)NC(=O)CN2CCN(CC(=O)[O-])CCN(CC(=O)[O-])CCN(CC(=O)[O-])CC2)cc1C(C)C.[177Lu+3] (mixture of isomers); cell line = HT-29; conditions = concentration not given, 120 min; how to read = reference: added activity; quantity = surface-bound fraction; value = 1.63 ± 0.26%
Compound = CC(C)n1nc(C(F)F)cc1C(=O)Nc1ccc([C@H]2[C@@H](O)CCCc3cncn32)c(-c2ccccc2)c1; cell line = BRD4-HiBiT cells; test = BRD4 degradation rescue, inhibitor; conditions = 24 h, with: dBET6 500 nM; quantity = EC50; value = 40.1 nM
Compound = COC(=O)c1cc(NC2=NC(=O)C(=Cc3ccc(N(C)C)cc3)S2)ccc1OC(C)=O; cell line = MCF7; test = GC-MS, item: L-Leucine; conditions = 1 µM; how to read = reference: DMSO; quantity = metabolite level; value = 0.5 fold change
Compound = O=C(C[Se]C(=O)c1ccc2ccccc2n1)Nc1cccc(C(F)(F)F)c1; cell line = NCI60 colon subpanel; test = cell growth; conditions = 10 µM, 48 h, one-dose; quantity = mean growth percent; value = -54.2%
Compound = CN(C)c1ccc(-n2cc(COC(=O)[C@@]3(C)C=C(C(=O)OC(C)(C)C)C(=O)CC3)nn2)cc1; cell line = HeLa; test = quantitative western blot; conditions = concentration not given, 7 (unit not given), with: EGF; quantity = pERK/ERK ratio; value = 0.449
Compound = CCn1nc(Cl)c2c1-c1cnc(N)c(c1)O[C@H](C)c1cc(F)ccc1-c1nn(C)cc1C2; cell line = NCI-H3122 (EML4-ALK variant 1); test = cell viability; quantity = Emax; value = 68.9%
Compound = CC(C)(C)c1cc(-c2ccc3cccnc3n2)nc(-c2ccc3cccnc3n2)c1.COc1ccncc1.[Cl-].[Cl-].[Ru+2].c1ccc2cc3nc4c5cccnc5c5ncccc5c4nc3cc2c1; cell line = SK-MEL-28; conditions = light 633 nm, oxygen 18.5%; how to read = reference: dark EC50 over light EC50; quantity = phototherapeutic index; value = 157
Compound = O=C(O)C1OC(Oc2ccc3c(=O)c(O)c(-c4ccc(O)cc4)oc3c2)C(O)C(O)C1O (stereo not drawn); cell line = MDCKII-UGT1A1/MRP2 cells; test = glucuronide efflux, substrate; quantity = Jmax; value = 6.86 ± 2.72 pmol/mg/min
Compound = CC[C@H](C)C(=O)O[C@H]1C[C@@H](C)C=C2C=C[C@H](C)[C@H](CC[C@@H]3CC=CC(=O)O3)[C@H]21; cell line = T84; test = short-circuit current; conditions = 50 µM, with: forskolin 20 µM; quantity = maximal inhibition; value = > 80%
Compound = O=C(C[Se]C(=O)c1ccccc1Nc1cccc(C(F)(F)F)c1)Nc1cccc(C(F)(F)F)c1; cell line = NCI60 colon subpanel; test = NCI60 five-dose screen; quantity = GI50; value = 2490 nM
Compound = CCCCCCc1cccc(C(O)CC(CO)NC(=O)CCCCCCCCCCNC(C)=O)c1 (stereo not drawn); cell line = HeLa; test = CERT activity, HPLC-MS/MS lipidomics, item: lactosylceramide 16; conditions = 1 µM, 24 h, not cell-number normalised; quantity = lactosylceramide level; value = 22100 pmol/sample and 12300 pmol/sample and 18100 pmol/sample
Compound = COc1ccc2c(c1)c(CC(=O)[Se]CC(=O)Nc1cccc(C(F)(F)F)c1)c(C)n2C(=O)c1ccc(Cl)cc1; cell line = NCI60 colon subpanel; test = NCI60 five-dose screen; quantity = mean TGI; value = 12300 nM
Compound = CCN(CC)CCNC(=S)Nc1ccc2nc(N3CCN(CC)CC3)cc(C)c2c1; cell line = U2OS HDR-GFP reporter; test = homology-directed repair, flow cytometry; conditions = 15 µM; quantity = GFP-positive cells; value = 6.2%
Compound = O=C(C[Se]C(=O)c1ccccc1Nc1ccccc1)Nc1cccc(C(F)(F)F)c1; cell line = NCI60 colon subpanel; test = NCI60 five-dose screen; quantity = GI50; value = 2750 nM
Compound = NC(Cc1ccccc1)C(=O)N1CC(=Cc2ccc(Cl)c(Cl)c2)C(=O)C(=Cc2ccc(Cl)c(Cl)c2)C1 (stereo not drawn); cell line = BRD4-HiBiT cells; test = BRD4 degradation rescue, inhibitor; conditions = 8 h, 50% degradation rescued, with: dBET6 500 nM; quantity = EC50; value = 1500 nM
